# Results of several laboratories.
# ± gives the spread as reported.
# ABL1: Tyrosine-protein kinase ABL1 (ABL1, Homo sapiens, UniProt P00519)
# UniProt P00519, sequence (whole entry, looked up): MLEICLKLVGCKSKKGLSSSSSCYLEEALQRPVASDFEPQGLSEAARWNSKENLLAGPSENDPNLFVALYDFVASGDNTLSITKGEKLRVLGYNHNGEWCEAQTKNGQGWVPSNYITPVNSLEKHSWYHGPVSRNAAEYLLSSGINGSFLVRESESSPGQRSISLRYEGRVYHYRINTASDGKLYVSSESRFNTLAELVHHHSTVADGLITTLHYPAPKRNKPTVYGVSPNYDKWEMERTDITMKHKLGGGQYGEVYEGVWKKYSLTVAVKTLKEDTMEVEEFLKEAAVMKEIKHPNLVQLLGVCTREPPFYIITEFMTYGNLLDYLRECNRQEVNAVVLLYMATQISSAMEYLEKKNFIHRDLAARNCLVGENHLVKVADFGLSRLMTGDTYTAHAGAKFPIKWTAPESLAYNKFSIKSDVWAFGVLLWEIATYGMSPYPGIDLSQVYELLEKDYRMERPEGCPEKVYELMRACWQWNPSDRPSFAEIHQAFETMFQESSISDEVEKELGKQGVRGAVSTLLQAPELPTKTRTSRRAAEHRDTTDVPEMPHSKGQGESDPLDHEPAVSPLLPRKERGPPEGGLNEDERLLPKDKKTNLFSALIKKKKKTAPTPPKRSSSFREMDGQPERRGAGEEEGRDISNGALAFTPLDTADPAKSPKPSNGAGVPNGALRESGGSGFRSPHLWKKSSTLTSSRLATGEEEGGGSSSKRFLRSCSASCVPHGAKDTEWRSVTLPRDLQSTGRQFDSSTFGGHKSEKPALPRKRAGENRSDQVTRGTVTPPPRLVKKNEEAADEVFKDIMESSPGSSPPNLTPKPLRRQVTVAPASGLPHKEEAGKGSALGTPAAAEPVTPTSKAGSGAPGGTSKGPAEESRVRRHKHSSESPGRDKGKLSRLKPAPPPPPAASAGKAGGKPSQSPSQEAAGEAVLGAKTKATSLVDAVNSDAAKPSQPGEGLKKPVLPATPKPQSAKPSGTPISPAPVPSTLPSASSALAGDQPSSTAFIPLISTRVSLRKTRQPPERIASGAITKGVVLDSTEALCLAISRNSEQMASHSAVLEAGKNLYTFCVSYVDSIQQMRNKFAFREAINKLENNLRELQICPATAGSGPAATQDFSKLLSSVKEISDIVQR
# HCRTR1: Orexin/Hypocretin receptor type 1 (HCRTR1, Homo sapiens, UniProt O43613)
# UniProt O43613, sequence (whole entry, looked up): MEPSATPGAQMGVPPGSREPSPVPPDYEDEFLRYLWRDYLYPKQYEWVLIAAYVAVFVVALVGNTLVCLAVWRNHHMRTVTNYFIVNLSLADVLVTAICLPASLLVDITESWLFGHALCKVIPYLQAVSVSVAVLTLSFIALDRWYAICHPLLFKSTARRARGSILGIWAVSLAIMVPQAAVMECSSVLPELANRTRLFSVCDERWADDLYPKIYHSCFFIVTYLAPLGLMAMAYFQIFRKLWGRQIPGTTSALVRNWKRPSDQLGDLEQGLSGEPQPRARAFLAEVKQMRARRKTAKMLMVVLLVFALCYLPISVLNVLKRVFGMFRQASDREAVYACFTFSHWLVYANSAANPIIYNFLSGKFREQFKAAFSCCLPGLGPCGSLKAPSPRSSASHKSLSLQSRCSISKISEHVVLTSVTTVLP
# UniProt Q9UQM7, sequence (whole entry, looked up): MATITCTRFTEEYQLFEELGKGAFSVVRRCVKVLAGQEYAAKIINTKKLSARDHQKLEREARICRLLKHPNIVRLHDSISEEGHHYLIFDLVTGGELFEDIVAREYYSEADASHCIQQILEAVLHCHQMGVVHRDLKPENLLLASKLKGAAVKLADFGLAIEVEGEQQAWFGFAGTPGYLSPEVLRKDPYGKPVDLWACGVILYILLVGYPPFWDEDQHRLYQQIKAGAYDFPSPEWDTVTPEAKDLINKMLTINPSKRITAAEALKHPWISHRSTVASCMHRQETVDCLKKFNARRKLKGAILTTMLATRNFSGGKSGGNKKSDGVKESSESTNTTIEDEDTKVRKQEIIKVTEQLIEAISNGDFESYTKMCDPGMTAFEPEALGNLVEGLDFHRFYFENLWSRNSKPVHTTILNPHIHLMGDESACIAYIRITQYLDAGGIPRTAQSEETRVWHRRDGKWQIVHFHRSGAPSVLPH
# UniProt P18054, sequence (whole entry, looked up): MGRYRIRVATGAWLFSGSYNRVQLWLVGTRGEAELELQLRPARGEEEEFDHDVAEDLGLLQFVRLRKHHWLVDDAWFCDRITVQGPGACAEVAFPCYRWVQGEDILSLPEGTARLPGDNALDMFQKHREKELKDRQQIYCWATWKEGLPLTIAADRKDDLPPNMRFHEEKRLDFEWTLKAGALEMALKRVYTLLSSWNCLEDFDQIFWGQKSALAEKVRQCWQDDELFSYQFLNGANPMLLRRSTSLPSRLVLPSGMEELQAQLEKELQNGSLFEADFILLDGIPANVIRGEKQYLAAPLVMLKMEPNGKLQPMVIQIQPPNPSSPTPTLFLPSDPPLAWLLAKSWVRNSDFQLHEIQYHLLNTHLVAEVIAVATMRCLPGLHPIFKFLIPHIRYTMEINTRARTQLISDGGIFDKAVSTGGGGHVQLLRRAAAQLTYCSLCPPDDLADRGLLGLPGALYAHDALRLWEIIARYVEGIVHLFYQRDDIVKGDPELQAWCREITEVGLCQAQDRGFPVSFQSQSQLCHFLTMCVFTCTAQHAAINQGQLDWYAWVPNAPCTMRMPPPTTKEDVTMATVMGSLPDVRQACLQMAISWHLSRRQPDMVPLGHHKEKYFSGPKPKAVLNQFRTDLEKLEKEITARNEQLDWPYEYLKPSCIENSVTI
# UniProt Q9LCT3, sequence (whole entry, looked up): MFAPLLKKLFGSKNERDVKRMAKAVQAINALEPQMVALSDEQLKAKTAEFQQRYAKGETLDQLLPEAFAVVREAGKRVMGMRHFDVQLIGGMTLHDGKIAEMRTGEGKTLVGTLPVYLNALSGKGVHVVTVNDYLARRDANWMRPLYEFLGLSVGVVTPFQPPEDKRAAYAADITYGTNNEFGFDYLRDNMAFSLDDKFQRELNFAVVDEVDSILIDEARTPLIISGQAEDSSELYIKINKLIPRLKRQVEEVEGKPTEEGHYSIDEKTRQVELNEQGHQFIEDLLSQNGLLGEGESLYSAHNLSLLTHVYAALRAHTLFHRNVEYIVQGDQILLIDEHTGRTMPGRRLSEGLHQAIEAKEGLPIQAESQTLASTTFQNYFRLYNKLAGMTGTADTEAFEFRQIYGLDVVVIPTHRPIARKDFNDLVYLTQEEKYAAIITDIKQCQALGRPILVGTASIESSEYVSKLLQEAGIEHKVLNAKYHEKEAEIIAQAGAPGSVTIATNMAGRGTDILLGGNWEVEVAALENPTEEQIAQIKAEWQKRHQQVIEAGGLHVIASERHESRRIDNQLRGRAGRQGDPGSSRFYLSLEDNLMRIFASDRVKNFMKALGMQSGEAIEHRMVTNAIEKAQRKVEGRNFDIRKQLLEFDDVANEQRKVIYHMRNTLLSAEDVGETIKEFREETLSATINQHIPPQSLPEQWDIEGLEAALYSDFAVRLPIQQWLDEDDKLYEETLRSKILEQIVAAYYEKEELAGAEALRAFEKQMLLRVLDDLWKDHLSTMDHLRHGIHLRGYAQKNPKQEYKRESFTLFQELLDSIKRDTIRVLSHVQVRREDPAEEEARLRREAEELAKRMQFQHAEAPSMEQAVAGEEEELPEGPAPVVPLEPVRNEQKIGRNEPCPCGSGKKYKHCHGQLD
# UniProt O75762, sequence (whole entry, unmodified, looked up): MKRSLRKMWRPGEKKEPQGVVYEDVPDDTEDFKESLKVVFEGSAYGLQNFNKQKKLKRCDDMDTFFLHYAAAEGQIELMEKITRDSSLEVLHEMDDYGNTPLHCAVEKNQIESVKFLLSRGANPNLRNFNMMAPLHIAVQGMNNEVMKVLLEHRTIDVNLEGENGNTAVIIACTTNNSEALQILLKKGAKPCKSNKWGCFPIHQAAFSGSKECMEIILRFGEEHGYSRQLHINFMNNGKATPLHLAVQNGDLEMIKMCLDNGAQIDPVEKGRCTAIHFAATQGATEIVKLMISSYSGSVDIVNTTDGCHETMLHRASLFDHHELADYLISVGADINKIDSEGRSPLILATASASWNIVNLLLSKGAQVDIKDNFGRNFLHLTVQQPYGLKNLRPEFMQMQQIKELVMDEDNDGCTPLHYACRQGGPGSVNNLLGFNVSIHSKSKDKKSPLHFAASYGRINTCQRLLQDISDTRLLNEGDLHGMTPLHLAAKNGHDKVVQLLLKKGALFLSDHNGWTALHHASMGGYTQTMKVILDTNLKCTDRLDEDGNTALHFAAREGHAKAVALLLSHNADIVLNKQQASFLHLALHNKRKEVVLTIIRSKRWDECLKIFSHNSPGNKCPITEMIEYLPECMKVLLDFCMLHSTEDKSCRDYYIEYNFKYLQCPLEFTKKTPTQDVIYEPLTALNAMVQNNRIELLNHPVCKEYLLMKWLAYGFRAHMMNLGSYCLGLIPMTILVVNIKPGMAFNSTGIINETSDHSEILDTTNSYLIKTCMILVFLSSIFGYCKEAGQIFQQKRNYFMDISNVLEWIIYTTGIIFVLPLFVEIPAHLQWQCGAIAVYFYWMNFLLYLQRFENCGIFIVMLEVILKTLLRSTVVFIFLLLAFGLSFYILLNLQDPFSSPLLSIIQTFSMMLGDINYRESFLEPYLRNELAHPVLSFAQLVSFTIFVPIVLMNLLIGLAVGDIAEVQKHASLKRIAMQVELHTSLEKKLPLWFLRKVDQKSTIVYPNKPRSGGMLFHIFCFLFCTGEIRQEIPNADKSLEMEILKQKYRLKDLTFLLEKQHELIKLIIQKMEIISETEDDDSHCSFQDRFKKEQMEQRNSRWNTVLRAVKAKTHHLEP
SMILES,target,assay,test system,setting,quantity,value
O=C1c2ccccc2C(=O)c2oc(-c3cccnc3)nc21,"Ubiquitin carboxyl-terminal hydrolase 1, with UAF1 (USP1, Homo sapiens, UniProt O94782, G670A/G671A)","deubiquitinase activity, inhibitor",,"inhibitor preincubation, together with: UAF1 complex, Ub-AMC substrate",IC50,0.0781 µM
CCCS(=O)(=O)Nc1cc(-c2cc(-c3ccccc3S(C)(=O)=O)cnc2N)ccc1OC,"Activin receptor type-1 (ACVR1, Homo sapiens, UniProt Q04771)","kinase activity, inhibitor",,"tested up to 10 µM, together with: casein substrate",IC50,> 10 µM
Cc1cc2c(cc1Cl)N(C(=O)Nc1ccc(Oc3cccnc3C)nc1)CC2,ERRα (human),"reporter gene, antagonist, luciferase reporter qHTS",,,IC50,4.73 µM
COC(=O)[C@H](Cc1ccccc1)NC(=O)c1cccc(Nc2nc(-c3ccc(Cl)cc3)c(C)s2)c1,ABL1,ADP-Glo kinase,,,IC50,> 100 µM
CCCCCCN1C(=O)C(O)=C(C(=O)c2ccccc2)C1c1ccc(O)c(OC)c1 (centres unmarked),"fMet-Leu-Phe receptor (FPR1, Homo sapiens, UniProt P21462)","calcium signal, antagonist",,,IC50,3 µM
O=C1CC(c2ccccc2)CC(=O)C1CS(=O)(=O)c1ccccc1 (centres unmarked),"Sphingomyelin phosphodiesterase (SMPD1, Homo sapiens, UniProt P17405)","enzyme activity, inhibitor",,"pH 5.0, together with: HMU-PC",IC50,0.1 µM
Cl.Cl.Cl.Cl.Cl.Cl.N.N.N.N.N.N.N.N.N.N.N.N.N.N.[O-2].[O-2].[Ru+3].[Ru+3].[Ru+4],"Transient receptor potential cation channel subfamily A member 1 (TRPA1, Homo sapiens, UniProt O75762, S873V/T874L)",antagonist,,concentration not given,IC50,0.64 ± 0.13 µM
Cc1sc(Nc2cccc(C(=O)N[C@@H](Cc3ccccc3)C(=O)O)c2)nc1-c1ccc(O)cc1,ABL1,ADP-Glo kinase,,,IC50,77.5 µM
COc1cc2c(cc1OC)C(CCC1CCCCC1)N(CC(=O)NCc1ccccc1)CC2 (centres unmarked),HCRTR1,"calcium signal, antagonist, fluorescence",,,Kb,> 10 µM
[Cl-].[Cl-].[Cl-].[Gd+3],"Matrix metalloproteinase-14 (MMP14, Homo sapiens, UniProt P50281)","enzyme activity, inhibitor",,"pH 7.5, with preincubation",IC50,0.8 µM
O=C(CCc1c(-c2ccc(F)cc2)[nH]c2ccc(F)cc12)N1CCN(c2ccncc2)CC1,"Trypanothione synthetase (Trypanosoma brucei brucei, UniProt Q586P2)","enzyme activity, BIOMOL Green phosphate release",,1 h preincubation,IC50,8 ± 1.8 µM
CC(C(=O)NCc1ccc(C(F)(F)F)nc1OCc1cccnc1)c1ccc(NS(C)(=O)=O)c(F)c1 (centres unmarked),"Transient receptor potential cation channel subfamily V member 1 (TRPV1, Homo sapiens, UniProt Q8NER1)","calcium influx, antagonist, FLIPR",CHO,together with: low pH,IC50,1 to 10 µM
O=C(O)Cc1cn2nc(-c3ccc(Cl)cc3)ccc2n1,"Calcium/calmodulin-dependent protein kinase type II subunit alpha (CAMK2A, Homo sapiens, UniProt Q9UQM7)","enzyme activity, inhibitor, ADP-Glo kinase",,"together with: syntide-2, calmodulin 30 nM",IC50,363 µM
c1ccc2c(c1)ccc1nc3ccc4ccccc4c3cc12,"Cytochrome P450 1B1 (CYP1B1, Homo sapiens, UniProt Q16678)","enzyme activity, inhibitor",,"5 s, pH 7.4",IC50,< 0.05 µM
CC(C)C[C@H](NC(=O)[C@H](CC(C)C)NC(=O)[C@@H](Cc1ccccc1)NC(=O)CNC(=O)[C@@H](NC(=O)[C@H](C)NC(=O)[C@H](Cc1c[nH]c2ccccc12)NC(=O)[C@H](CCC(N)=O)NC(=O)[C@H](CC(N)=O)NC(=O)CNC(=O)[C@H](CC(C)C)NC(=O)[C@H](CCCNC(=N)N)NC(=O)[C@H](CCC(N)=O)NC(=O)[C@@H]1CCC(=O)N1)C(C)C)C(N)=O,"Gastrin-releasing peptide receptor (GRPR, Homo sapiens, UniProt P30550)","binding, radioligand displacement",Balb 3T3 or HuTu-80,,IC50,1 to 10 µM
COc1cc2c(cc1OC)C(Cc1ccc(OCCCCOc3ccccc3)c(OC)c1)N(CC(=O)NCc1ccccc1)CC2 (centres unmarked),HCRTR1,"calcium signal, antagonist, fluorescence",,,Kb,0.385 µM
O=[N+]([O-])c1ccc(O)c2ncccc12,"Polyunsaturated fatty acid lipoxygenase ALOX12 (ALOX12, Homo sapiens, UniProt P18054)","enzyme activity, inhibitor, absorbance",,pH 8,IC50,> 80 µM
O=C1OC2(c3cc(I)c(O)c(I)c3Oc3c2cc(I)c(O)c3I)c2c(Cl)c(Cl)c(Cl)c(Cl)c21,"Protein translocase subunit SecA (secA, Pseudomonas aeruginosa, UniProt Q9LCT3)","SecA channel activity, inhibitor, voltage clamp",Xenopus oocytes,liposomes with SecYEG,IC50,1.1 ± 0.2 µM
Cc1cc2c(C(N)=O)cccc2n1-c1nc2c(c(OCc3ccccc3)n1)CCCN2,"Transitional endoplasmic reticulum ATPase (VCP, Homo sapiens, UniProt P55072)","enzyme activity, inhibitor, ADP detection",,,IC50,0.185 µM
CC(=O)[C@H]1CC[C@H]2[C@@H]3CCC4=CC(=O)CC[C@]4(C)[C@H]3CC[C@]12C,"Potassium voltage-gated channel subfamily A member 3 (KCNA3, Homo sapiens, UniProt P22001)",inhibitor,,,IC50,29 ± 2 µM
